Results pooled from the literature.
Values joined by “and” are separate records of one study, mostly repeats; a detail may differ.

`CCOC(=O)C1=C(CN2CCOCC2)NC(c2nccs2)=NC1c1ccc(F)cc1Br` (stereo not drawn): AUC “no effect” (healthy human; oral, dose not given, high-fat meal vs fasted).
The AUC of `CC(=O)C[C@@H](c1ccccc1)c1c(O)c2ccccc2oc1=O` is reported as 19.2 µg·h/mL (human; dose not given, alone).
With `O=c1ccc2ncc(=O)n3c2n1C[C@H]3CN1CCC(NCc2cc3c(cn2)OCCC3)CC1` the AUC decrease was 52% and ~50% (healthy human volunteers, plasma; oral, dose not given, together with: rifampicin co-administration; baseline: compound alone).
With `CCN(CC)C(=O)[C@@H]1C=C2c3cccc4[nH]cc(c34)C[C@H]2N(C)C1` the AUC extrapolated was 0.674% and 4.3% and 2.97% and 2.17% and 5.23% and 1.42% and 0.989% and 0.966% (human; oral, 100 µg).
With `Cc1ncc2n1-c1ccc(Cl)cc1C(c1ccccc1F)=NC2` the AUC increase was less than 50% (human, plasma; oral, dose not given, extrapolated DDI estimate, together with: rimegepant 75 mg daily).
`Cn1ncc(-c2nc(N[C@H]3CC[C@H](N)CC3)ncc2Cl)c1CC1CC1` gave an AUC of 0.125 µg·h/mL (human patients, plasma; oral, 3 mg, day 1).
`O=C(O)C(F)(F)C(F)(F)C(F)(F)C(F)(F)C(F)(F)C(F)(F)C(F)(F)F` has an AUC of 4470 µg·h/mL (two-compartment model; human, plasma; oral, 50 mg single dose, geometric mean).
`N.N.O=C([O-])C1(C(=O)[O-])CCC1.[Pt+2]` — result for “AUC to infinity”: 20 µg·h/mL (item: non-protein-bound platinum; human, plasma ultrafiltrate; target AUC 2, from 0, median, Bayesian estimate).
The AUC change of `Cc1nnc2n1-c1ccc(Cl)cc1C(c1ccccc1)=NC2` is reported as -7.57% (human female; dose not given, day 22; baseline: day 0).

A few entries again:
With `CCN(CC)C(=O)[C@@H]1C=C2c3cccc4[nH]cc(c34)C[C@H]2N(C)C1` the AUC extrapolated was 0.674% and 4.3% and 2.97% and 2.17% and 5.23% and 1.42% and 0.989% and 0.966% (human; oral, 100 µg).
